Experimental data collected from several papers.
Each numbered part is a random draw from the data of one study; scales do not carry over between parts. Changes are numbered by the printed parent chain.

Series 1 — method: RNA Bind-n-Seq; form: RNA; medium: in vitro; concentration: 100 nM; relative to: input RNA pool; reading: higher = stronger binding; measurement: bound/input enrichment
Target: RING finger protein unkempt homolog, zinc fingers 1-6, SBP tag (UNK, Homo sapiens, UniProt Q9C0B0, residues 30-357)
Chain of UniProt Q9C0B0 (30-357, looked up): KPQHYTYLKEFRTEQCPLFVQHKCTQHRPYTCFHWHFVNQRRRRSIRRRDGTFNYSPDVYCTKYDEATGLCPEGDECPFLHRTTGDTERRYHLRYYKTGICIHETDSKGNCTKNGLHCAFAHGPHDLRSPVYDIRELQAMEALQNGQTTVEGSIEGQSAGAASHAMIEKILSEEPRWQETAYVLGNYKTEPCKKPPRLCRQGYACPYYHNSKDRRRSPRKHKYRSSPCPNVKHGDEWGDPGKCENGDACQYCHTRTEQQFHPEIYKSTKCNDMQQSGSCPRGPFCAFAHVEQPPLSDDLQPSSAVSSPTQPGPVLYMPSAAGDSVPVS
Notes: RNA with constant flanks, vertebrate orthologous sites, ends assumed
All sequences stand within: GGGAGUUCUACAGUCCGACGAUC … CAACAGAGGAUUGAGCAUCA
AGCAACCCAAGGAUUCAGGACUGGUUUUACAAAUAUGCCAAGUAGAUAUGGAACUAACAAUAGACAACCAAGACCAUGAUGUACUGUAAAUUAAUUUAUUUUUAUGAGGAAUAUUGACUU: 1.28 ratio
UUGGGGUGUAUCUGUGGGCGCUGCUGGCCACGUAGCGUCGUUUGAUUCAUGACCUUGACAUAAUAGAUAGGCUUGUGGUUUUUUAAUUUAAAGAUAUUAAGACUUUAAUUCACUAAAAUU: 0.531 ratio
CUCCACUACUCCUGGGUGCGUGACUCCAGUGAAGCAUCCACCAGUGCUGCAAGGGGUCCAGAGUAUUGUUUUUUUUGCUGUUUCAGUCCCCAGUGCCUACCAGCAGAAGUGGCAGUAGAU: 0.554 ratio
CCCAGAUUUUAGAUGUGAUAUGUAGGCUUUCAUUCCAGCUUGUUUUUGUCUUUUCUUGUUUAGAUACCAAUCUUUUAAAUUCUUGCAUUUUAGUAAGAAAGCUACCUUUUUAUGGAUGUU: 1.45 ratio
UUCAGGCACAACUGACUGGUUCACAGCAUUCCUUACACAGUUAUCUAUCAAAUGCAAGUGUGGUCAAUUUUCAGGAAACCAGCAGGCAGUCAUCUUUAUCCUGUAGCCCAGUUGGAGAUU: 0.543 ratio
ACCUCUGAACCCCAUAUCUUCUGUUUCAUAGUGCAGAAGUAUUCUUUGCAUUUAUAUUAUUAAUGGACUUGUUUUAAUUUUAGAGAAACUUUCAGUACAGAUACUGUGAGCUGUCAUGGA: 1.24 ratio
UUCAACACCACUGGGUGGAAGGAUGAGGAUGGAGCGGCCAUCAUAGCUAGAAAGGGUCCAUCUUUGUUCCCAUUUGCAUCAUCAUCCCCAGAUCAAGGUGGCAGCAGAUUUCUCCCUACC: 0.318 ratio

Series 2 — method: protein binding microarray; form: double-stranded DNA, one strand shown; medium: in vitro; concentration: not given; relative to: not given; reading: higher = stronger binding; measurement: E-score
Target: Histone acetyltransferase KAT6A, both winged helices, GST fusion (KAT6A, Homo sapiens, UniProt Q92794, residues 1-181)
Notes: 8-mer, flanks averaged, mean of 2 arrays, mostly near background
Target sequence (chain): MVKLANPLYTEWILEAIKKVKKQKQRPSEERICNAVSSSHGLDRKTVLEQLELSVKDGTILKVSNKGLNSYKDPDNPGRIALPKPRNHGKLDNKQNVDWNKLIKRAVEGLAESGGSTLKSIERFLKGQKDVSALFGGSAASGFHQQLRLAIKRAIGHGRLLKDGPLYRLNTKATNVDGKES
GGTAACTA: 0.00091
ATTTATAG: -0.215
CGCAACAA: 0.0456
ACGAAACT: -0.179
CTGCTTTA: -0.0836
CTTGTTTA: -0.0236
GGCGGTTA: 0.143
GTAGTGTA: -0.132
ACAGTAAC: -0.0807
ACTCCGCC: 0.21
ATTTTTCC: -0.0367
CAGCCGAA: 0.0614
TACTCCGA: -0.00886
TCAGAGCA: -0.184

Series 3 — target: CCNB3, cyclin fold, Cln2 fusion (human); method: yeast growth competition, sequencing; medium: yeast; notes: weak parent motif; relative to: not given; reading: higher = stronger binding; measurement: normalised enrichment score
Starting sequence: MICAL3 docking peptide (human); LQLRRQLSFSEDS; partner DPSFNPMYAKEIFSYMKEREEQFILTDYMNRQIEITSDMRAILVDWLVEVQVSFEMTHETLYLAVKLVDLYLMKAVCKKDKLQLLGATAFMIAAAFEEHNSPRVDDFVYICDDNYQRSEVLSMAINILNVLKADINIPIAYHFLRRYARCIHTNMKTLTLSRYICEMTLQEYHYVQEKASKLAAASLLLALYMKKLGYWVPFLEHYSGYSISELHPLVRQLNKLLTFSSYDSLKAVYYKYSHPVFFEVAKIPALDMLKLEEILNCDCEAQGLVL
LQLLRQLSFSEDS [R4L]: 0.278
LQLRRQLSFSCDS [E11C]: 0.25
LQHRRQLSFSEDS [L3H]: -0.173
LQWRRQLSFSEDS [L3W]: -0.0639
LQLRRQLSQSEDS [F9Q]: 0.128
LQRRRQLSFSEDS [L3R]: 0.0963
LQERRQLSFSEDS [L3E]: -0.0704
LQVRRQLSFSEDS [L3V]: 0.746
LQLRRQLSGSEDS [F9G]: 0.283
LQLRRQLQFSEDS [S8Q]: 0.149
LQLRCQLSFSEDS [R5C]: 0.0419

Other studies, line by line
PhoQ, residues 284 288 289 292 302 303 ASASEQ  fold induction (PhoP, residues 12 14 15 18 19 QYFSL (Escherichia coli, UniProt P23836); Sort-seq, item: YFP reporter; E. coli; PhoQ-PhoP variant library, with: 10 µM Mg2+; relative to: high Mg2+ state, higher = stronger signaling): 13

Repeated from above (series 1):
AGCAACCCAAGGAUUCAGGACUGGUUUUACAAAUAUGCCAAGUAGAUAUGGAACUAACAAUAGACAACCAAGACCAUGAUGUACUGUAAAUUAAUUUAUUUUUAUGAGGAAUAUUGACUU: 1.28 ratio
ACCUCUGAACCCCAUAUCUUCUGUUUCAUAGUGCAGAAGUAUUCUUUGCAUUUAUAUUAUUAAUGGACUUGUUUUAAUUUUAGAGAAACUUUCAGUACAGAUACUGUGAGCUGUCAUGGA: 1.24 ratio
UUCAGGCACAACUGACUGGUUCACAGCAUUCCUUACACAGUUAUCUAUCAAAUGCAAGUGUGGUCAAUUUUCAGGAAACCAGCAGGCAGUCAUCUUUAUCCUGUAGCCCAGUUGGAGAUU: 0.543 ratio
